Measured values pooled from the literature.
Parts stem from different laboratories: compare values within a part only. Substitutions count along the parent as printed.
Sequence of UniProt Q8RYC8 (whole entry, looked up): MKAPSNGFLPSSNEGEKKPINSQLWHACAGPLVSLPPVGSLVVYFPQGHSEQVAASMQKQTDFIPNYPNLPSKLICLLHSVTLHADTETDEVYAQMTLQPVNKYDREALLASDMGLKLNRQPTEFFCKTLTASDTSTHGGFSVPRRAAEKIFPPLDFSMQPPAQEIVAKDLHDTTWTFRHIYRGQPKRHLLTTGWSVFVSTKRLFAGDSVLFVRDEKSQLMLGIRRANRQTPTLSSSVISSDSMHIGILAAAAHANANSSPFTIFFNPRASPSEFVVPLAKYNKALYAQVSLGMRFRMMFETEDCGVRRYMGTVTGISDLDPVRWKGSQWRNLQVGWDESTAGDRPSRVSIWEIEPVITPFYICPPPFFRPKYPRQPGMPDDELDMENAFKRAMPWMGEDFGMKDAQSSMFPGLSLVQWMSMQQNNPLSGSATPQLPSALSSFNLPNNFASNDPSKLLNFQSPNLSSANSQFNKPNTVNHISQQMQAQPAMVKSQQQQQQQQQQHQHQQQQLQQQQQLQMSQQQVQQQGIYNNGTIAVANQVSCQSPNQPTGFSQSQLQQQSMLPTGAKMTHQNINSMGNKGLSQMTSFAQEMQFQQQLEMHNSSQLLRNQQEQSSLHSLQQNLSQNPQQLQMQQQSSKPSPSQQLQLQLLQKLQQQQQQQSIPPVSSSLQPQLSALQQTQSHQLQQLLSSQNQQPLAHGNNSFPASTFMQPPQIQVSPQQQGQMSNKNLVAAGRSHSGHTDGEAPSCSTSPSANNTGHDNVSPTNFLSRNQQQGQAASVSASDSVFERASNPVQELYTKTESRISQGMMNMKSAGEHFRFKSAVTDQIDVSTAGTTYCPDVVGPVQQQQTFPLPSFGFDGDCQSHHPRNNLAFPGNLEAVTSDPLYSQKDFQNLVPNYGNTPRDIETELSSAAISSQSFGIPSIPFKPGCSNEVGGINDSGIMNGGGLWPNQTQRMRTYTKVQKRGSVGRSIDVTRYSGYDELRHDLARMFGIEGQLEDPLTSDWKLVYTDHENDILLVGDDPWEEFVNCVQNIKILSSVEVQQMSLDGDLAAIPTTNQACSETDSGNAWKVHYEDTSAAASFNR
Sequence of UniProt Q9LQE8 (whole entry, looked up): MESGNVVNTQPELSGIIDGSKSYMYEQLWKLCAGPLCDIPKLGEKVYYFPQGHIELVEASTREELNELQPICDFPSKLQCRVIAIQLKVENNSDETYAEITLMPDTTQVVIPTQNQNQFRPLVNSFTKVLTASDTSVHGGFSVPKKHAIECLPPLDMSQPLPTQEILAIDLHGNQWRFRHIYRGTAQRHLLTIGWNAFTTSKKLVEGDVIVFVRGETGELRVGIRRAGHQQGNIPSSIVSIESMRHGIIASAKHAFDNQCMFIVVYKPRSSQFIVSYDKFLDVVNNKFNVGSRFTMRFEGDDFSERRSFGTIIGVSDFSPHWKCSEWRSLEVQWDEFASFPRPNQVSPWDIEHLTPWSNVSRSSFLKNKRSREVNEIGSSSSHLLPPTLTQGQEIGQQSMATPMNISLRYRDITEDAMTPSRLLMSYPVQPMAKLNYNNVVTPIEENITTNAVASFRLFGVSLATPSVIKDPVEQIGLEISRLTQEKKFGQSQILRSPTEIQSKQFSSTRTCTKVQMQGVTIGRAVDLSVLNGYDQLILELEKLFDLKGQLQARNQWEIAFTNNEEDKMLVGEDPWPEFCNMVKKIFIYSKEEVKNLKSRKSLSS
Sequence of UniProt Q9SKN5 (whole entry, looked up): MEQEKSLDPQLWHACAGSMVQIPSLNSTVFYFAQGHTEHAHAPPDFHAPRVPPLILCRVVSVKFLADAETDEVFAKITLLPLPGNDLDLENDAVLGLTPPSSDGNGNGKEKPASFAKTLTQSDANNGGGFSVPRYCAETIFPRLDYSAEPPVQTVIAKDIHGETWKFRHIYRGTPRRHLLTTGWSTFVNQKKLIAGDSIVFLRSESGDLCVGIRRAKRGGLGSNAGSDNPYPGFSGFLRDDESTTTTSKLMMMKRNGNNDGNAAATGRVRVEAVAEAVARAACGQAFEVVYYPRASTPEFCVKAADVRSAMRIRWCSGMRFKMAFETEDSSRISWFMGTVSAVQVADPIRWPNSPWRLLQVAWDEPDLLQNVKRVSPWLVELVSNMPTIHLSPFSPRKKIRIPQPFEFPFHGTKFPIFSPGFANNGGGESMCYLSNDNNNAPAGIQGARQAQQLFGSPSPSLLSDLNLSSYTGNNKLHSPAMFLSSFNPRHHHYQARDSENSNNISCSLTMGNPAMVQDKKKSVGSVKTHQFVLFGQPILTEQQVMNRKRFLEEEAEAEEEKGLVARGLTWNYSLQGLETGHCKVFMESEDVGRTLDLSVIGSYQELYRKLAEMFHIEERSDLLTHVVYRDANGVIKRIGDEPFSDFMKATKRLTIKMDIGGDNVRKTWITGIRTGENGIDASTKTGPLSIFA
Sequence of UniProt Q9FX25 (whole entry, looked up): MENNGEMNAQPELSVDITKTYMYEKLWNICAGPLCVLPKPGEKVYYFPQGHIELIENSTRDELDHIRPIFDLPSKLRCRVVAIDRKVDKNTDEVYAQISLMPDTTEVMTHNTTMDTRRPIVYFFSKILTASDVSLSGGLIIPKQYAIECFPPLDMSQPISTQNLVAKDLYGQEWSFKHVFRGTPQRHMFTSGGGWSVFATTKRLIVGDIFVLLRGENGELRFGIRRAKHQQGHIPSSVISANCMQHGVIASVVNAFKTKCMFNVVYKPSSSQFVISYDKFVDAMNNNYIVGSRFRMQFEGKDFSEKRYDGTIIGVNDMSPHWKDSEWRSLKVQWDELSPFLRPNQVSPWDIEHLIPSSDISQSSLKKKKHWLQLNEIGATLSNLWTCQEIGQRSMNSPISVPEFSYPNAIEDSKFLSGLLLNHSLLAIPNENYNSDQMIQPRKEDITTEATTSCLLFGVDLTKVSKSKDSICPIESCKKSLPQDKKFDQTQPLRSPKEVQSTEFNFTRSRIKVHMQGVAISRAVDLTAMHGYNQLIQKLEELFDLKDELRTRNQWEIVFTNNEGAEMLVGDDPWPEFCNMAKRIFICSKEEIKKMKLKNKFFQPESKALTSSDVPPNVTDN

Series 1 — target: CCNB2, cyclin fold, Cln2 fusion (human); technique: yeast growth competition, sequencing; sample: yeast; setting: weak parent motif; reference: not given; direction: higher = stronger binding
Starting sequence: CDC25A docking peptide (human); PPHRRRLLFACSP
Variant	normalised enrichment score
PPHRRRLLFACWP [S12W]	0.48
PPHRRRLLKACSP [F9K]	0.993
PPHRRRLKFACSP [L8K]	0.519
PPHRRSLLFACSP [R6S]	0.439
PPHRRRLLFQCSP [A10Q]	0.767
PWHRRRLLFACSP [P2W]	0.571
PPHRRRLLFACFP [S12F]	0.566
PKHRRRLLFACSP [P2K]	0.516
PPHRRRLLFECSP [A10E]	0.135
PPHRRRLLFVCSP [A10V]	0.302
PNHRRRLLFACSP [P2N]	0.57
PPHRQRLLFACSP [R5Q]	0.409
PPHRRRHLFACSP [L7H]	0.35
PPHRRRLLFTCSP [A10T]	0.488
PTHRRRLLFACSP [P2T]	0.818
PPHRRRLLFAFSP [C11F]	0.464
PPHRAAAAFACSP [R5A R6A L7A L8A]	-0.112
PPHKRRLLFACSP [R4K]	0.818
PPHRRRLHFACSP [L8H]	0.514
PPHRRRLLFRCSP [A10R]	1.05
PPHRRRLLFACSQ [P13Q]	1.13
PPHSRRLLFACSP [R4S]	-0.205
PPHWRRLLFACSP [R4W]	0.333
PPHRRRSLFACSP [L7S]	0.332
PPHRRRLLFAKSP [C11K]	0.00878

Series 2 — target: BATF2, bZIP domain (human); technique: DHFR protein complementation; sample: yeast; reference: wild-type JUN-FOS pair; direction: higher = stronger binding
Setting: single substitutions, most at no-binding floor
Starting sequence: JUN, bZIP domain (human); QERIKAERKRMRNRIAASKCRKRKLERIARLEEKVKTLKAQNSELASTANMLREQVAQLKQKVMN; partner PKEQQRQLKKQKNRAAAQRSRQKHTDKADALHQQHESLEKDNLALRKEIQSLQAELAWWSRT
Variant	binding fitness [natural log]
L38H	-1.32
K36M	-0.165
V56S	-1.48
L45E	-1.43
S47K	-0.0204
S43L	-0.215
E32T	-0.532
M51W	-0.332
K36D	-0.31
V35P	-1.49
R53I	-1.36
K34R	-0.125
Q41I	-0.174

Series 3 — Molecule: B1 (ARF9 519-638); technique: two-hybrid; setting: weak activation fusion; direction: higher = firmer interaction
B1: ARF9 519-638 (Arabidopsis thaliana, UniProt Q9XED8); chain SSSTRSRTKVQMQGVPVGRAVDLNALKGYNELIDDIEKLFDIKGELRSRNQWEIVFTDDEGDMMLVGDDPWPEFCNMVKRIFIWSKEEVKKMTPGNQLRMLLREVETTLTTTSKTDNHSN
partner	how to read	positive tests
ARF19 948-1086 (Arabidopsis thaliana, UniProt Q8RYC8)	reference: out of 4 tests	0
ARF22 498-598 (Arabidopsis thaliana, UniProt Q9C8N7)	reference: out of 4 tests	0
ARF14 497-605 (Arabidopsis thaliana, UniProt Q9LQE8)	reference: out of 3 tests	0
ARF10 575-693 (Arabidopsis thaliana, UniProt Q9SKN5)	reference: out of 4 tests	0
ARF13 (Arabidopsis thaliana, UniProt Q9FX25)	reference: out of 4 tests	0

Series 4 — technique: RNA Bind-n-Seq; form: RNA; sample: in vitro; concentration: 365 nM; reference: no-protein control; direction: higher = stronger binding
Target: RNA binding protein fox-1 homolog 2, RRM domain, GST-SBP tag (RBFOX2, Homo sapiens, UniProt O43251-10, residues 100-194)
Setting: natural RNA segment, single round, ends assumed
All sequences stand within: GGGAGUUCUACAGUCCGACGAUC … UGGAAUUCUCGGGUGCCAA
Construct (chain): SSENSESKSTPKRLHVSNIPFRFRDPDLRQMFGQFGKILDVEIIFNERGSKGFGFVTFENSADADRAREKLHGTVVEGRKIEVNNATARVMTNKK
Oligonucleotide	RBNS enrichment (R)
AAAAGAAAAAAAUAUCCCAAGCCCACACCUAUGCCUCAGAAAGUCAGCAUGUGUCCUGAAGACGUUCAUAGAUUUAUAGGAAAUAAAGCCAAAUGUAGCUCAUACCUCUU	12
UUUAAUUUAAAAGAAUGAUUAUCUGUUUUCUCCUUUUAGAAAAAGAGUCUAAGAAACACAGCAUGUGAAGAACAUUAGAUUUAUACAUUCCAGAAUCUCUGCUCUCAGAG	2.84
CCGGAUUGGAGCCUUGGCUGCCGUUGAGAAGCACUUACCUGCCAAGAUUUGCUGAUGCCAGACGAUCUACCCCAGCAUGUGAAUGCAUAAUGGACAUUGCCAUCUCUGCC	1.27
AAAAAUUAUCAAAAAGCUGAUGUGCAGGGAUAUUGCCUUAUUUGUCUGUAAAAAUGUAGCUCAGUAACAUAACUGCUUCUUGGAGCUUUGGAAUAUUUUAUCCUGUAUUC	0.498
CUAGCUUUGACAUCAUCUUGGGGGUUAGGCCAGAGGCUGGGAAGACUGGGUGGACUUUCUCAAUUGCUCUGCCAGGAGGGAACAAGCCCAGAGGCUGAAGCUUCCCAGUA	0.567
AUUCUCAAAACUGUCUGUCUCAUCAUGAGGAAAAAGGAACUUUCUUUUGUUCCUAUUCAGGACUUGAGGUAUAGUGCCAUAAAAUGUAGCAAAAACCCUAUCGGCCAGAU	0.302
UCCAUAGCCUUGUAAGAGAUACUGAUUGUAUCUGAAAUUAUUUUUUAAAAAAAUAAAUUAUCCUGCUUUAGUUAGUGUGUUAAAAGUAGACGAUGUUCUAAUAUAACACU	3.28
UAGAUCCUGUAGUAAACAUGUCCCAUCUAUGACUGCCUUGAUUAUAGAGGCAAGGGGUUACUGUGUGAAUCCCGGCUCCCUUCCACAUGCUGUACACCCUAUCCAUCUGU	0.84
AUUGUAUGUUUUGCAUUCCUAGAAGUAGGUUAACUGUGUUUUUAAAUUGUUAUAACUUCACACCUUUUUGAAAUCUGCCCUACAAAAUUUGUUUGGCUUAAACGUCAAAA	0.624
CUGUUGAACAGAUGUCUCCUGUGUGAUGCCCCUGACUCUUACAUUUAUCUUUCUAAAUCAUUUUCUGAAGCUGACUUGCUCUAGGGUGCUUCAUCACCACUUCCAUCUUG	0.321
UUACAGAGUAAUCUUUGAUUUCUCCAUCUGAUGUGGCCCUGGGAGCUGGAGCAAGAGUCCACCUUUAGCUGUGCCUGCCUUUACUUCUGUGCCUCACAAGUGCCUUUUGA	0.354
GCGUUGGCCUAACACUGGCUGUUUCGAUAGUGUGGGGGCUACAUGUGCCUGUAGGGGUCAGGCCUUGGCCCUGUGUGCGUGUGAGCCUGUGUGUGUAUGAGUGUGUGUGU	3.19

Series 5 — technique: universal PBM; form: double-stranded DNA, one strand shown; sample: in vitro; concentration: 600 nM; direction: higher = stronger binding
Target: Sal-like protein 4, full length isoform A (SALL4, Homo sapiens, UniProt Q9UJQ4, residues 1-1053)
Sequence of UniProt Q9UJQ4 (whole entry, looked up): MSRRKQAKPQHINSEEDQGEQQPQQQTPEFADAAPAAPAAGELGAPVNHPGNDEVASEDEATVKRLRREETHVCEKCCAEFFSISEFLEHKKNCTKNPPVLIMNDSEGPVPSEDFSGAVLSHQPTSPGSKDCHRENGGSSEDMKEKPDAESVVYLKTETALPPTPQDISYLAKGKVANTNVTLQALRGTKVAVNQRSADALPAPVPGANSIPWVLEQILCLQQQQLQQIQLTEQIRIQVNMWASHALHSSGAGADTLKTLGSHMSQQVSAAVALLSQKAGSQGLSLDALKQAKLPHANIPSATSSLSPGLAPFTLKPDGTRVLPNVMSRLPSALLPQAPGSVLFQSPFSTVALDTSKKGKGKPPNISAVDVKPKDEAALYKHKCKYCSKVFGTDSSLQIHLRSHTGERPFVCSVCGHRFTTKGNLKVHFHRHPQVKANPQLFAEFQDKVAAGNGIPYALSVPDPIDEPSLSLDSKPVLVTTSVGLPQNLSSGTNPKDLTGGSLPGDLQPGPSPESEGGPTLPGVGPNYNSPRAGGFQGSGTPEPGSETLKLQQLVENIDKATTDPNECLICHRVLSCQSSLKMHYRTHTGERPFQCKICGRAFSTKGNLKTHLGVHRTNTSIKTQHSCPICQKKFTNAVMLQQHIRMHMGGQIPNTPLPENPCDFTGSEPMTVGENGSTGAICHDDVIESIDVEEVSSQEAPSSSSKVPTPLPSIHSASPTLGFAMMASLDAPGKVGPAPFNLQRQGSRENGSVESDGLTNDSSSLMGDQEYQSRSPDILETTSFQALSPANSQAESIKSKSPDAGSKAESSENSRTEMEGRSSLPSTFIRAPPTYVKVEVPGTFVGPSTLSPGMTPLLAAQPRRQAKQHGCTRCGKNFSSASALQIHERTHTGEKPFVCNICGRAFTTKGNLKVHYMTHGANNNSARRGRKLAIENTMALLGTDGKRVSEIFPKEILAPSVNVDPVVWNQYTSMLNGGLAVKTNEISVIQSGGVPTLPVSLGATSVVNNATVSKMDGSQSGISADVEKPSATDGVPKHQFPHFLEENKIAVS
Setting: 8-mer, flanks averaged, mean of replicates
Oligonucleotide	E-score
GTTAGGGA	-0.0272
GCATTCCC	-0.114
CACTCAAG	-0.145
CACCCGGC	-0.42
AGTAGACG	0.0112
GTGACGGA	-0.135
AACTACGG	-0.15
CGGGTATA	0.026
AGTATCCA	0.0105
CAGTCTAC	-0.0372
CGCTGCAC	-0.275
CATAAATG	0.32
GGACGTAC	-0.18
CCTTAATA	0.256
ATCATCAG	0.104
ACTCACTC	-0.0664
CATGGTAC	0.00822
AGCTGCTC	-0.1

Series 6 — technique: DHFR PCA, deep sequencing; sample: yeast; added: (+)-ABA 17 µM; reference: wild-type fitted maximum; direction: higher = stronger binding
Target: ABI1, truncated, D143A, DHFR fusion (Arabidopsis thaliana)
Setting: methotrexate growth selection, single substitutions
Starting sequence: PYL1, truncated, DHFR fusion (Arabidopsis thaliana); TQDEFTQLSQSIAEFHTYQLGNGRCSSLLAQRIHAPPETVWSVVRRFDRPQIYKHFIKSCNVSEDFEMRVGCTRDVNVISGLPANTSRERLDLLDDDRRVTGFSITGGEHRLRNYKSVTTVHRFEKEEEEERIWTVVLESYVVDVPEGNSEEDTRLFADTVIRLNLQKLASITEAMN
Variant	relative binding score
T120D	-0.67%
T101Y	60.9%
R88S	77.3%
G23F	43.7%
D97W	47.7%
S42N	86.1%
D144Y	-3.86%
S80V	-13.8%
N177R	66.5%
R45H	6.09%
I162W	-17%
D144M	16.5%
E109L	45%
F103Y	70%
S140Q	-5.49%
Q7E	83.2%
R74S	-7.99%

Single results of other studies
Substance	target	assay	system	setting	how to read	quantity	value
PhoQ, residues 284 288 289 292 302 303 SSCCRF	PhoP, residues 12 14 15 18 19 DLLYY (Escherichia coli, UniProt P23836)	Sort-seq, measured: YFP reporter	E. coli	PhoQ-PhoP variant library, added: 10 µM Mg2+	reference: high Mg2+ state, higher = stronger signaling	fold induction	0.867

For quick reference, copied from above (series 1):
Variant	normalised enrichment score
PPHRRRHLFACSP [L7H]	0.35
PPHRRRLLFTCSP [A10T]	0.488
PTHRRRLLFACSP [P2T]	0.818
PPHRRRLLFAFSP [C11F]	0.464
PPHRAAAAFACSP [R5A R6A L7A L8A]	-0.112
PPHKRRLLFACSP [R4K]	0.818
PPHRRRLHFACSP [L8H]	0.514
PPHRRRLLFRCSP [A10R]	1.05
PPHRRRLLFACSQ [P13Q]	1.13
PPHSRRLLFACSP [R4S]	-0.205
PPHWRRLLFACSP [R4W]	0.333
PPHRRRSLFACSP [L7S]	0.332
PPHRRRLLFAKSP [C11K]	0.00878
